# Measurements pooled from the literature.
# A part holds a random share of what one study measured. Positions count from the first letter of the parent shown.

# Study 1
# Target: CEBPA, bZIP domain (human)
# Method: DHFR protein complementation
# Matrix: yeast
# Setting: single substitutions, most at no-binding floor
# Relative to: wild-type JUN-FOS pair
# Reading: higher = stronger binding
# Starting sequence: JUN, bZIP domain (human); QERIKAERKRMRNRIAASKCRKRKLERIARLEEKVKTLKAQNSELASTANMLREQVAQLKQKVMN; partner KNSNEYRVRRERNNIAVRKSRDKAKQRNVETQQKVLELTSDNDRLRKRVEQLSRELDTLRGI
Variant,binding fitness [natural log]
S47M,-1.32
N42S,-1.5
L45E,-1.56
E32H,-1.46
Q55S,-1.43
A40T,-1.38
V35W,-1.57
V35F,-1.54
T48L,-1.33
A57E,-1.46
E33A,-1.29
S47L,-1.32

# Study 2
# Molecule: PhoQ, residues 284 288 289 292 302 303 TVTVVA
# Method: Sort-seq
# Refers to: YFP reporter
# Matrix: E. coli
# Setting: PhoQ-PhoP variant library
# Together with: 10 µM Mg2+
# Relative to: high Mg2+ state
# Reading: higher = stronger signaling
target,fold induction
"PhoP, residues 12 14 15 18 19 SHWTV (Escherichia coli, UniProt P23836)",0.901
"PhoP, residues 12 14 15 18 19 QYCSL (Escherichia coli, UniProt P23836)",10.6
"PhoP, residues 12 14 15 18 19 STHWV (Escherichia coli, UniProt P23836)",4.28

# Study 3
# Target: RNA binding protein fox-1 homolog 2, RRM domain, GST-SBP tag (RBFOX2, Homo sapiens, UniProt O43251-10, residues 100-194)
# Method: RNA Bind-n-Seq
# Form: RNA
# Matrix: in vitro
# Tested at: 365 nM
# Setting: natural RNA segment, single round, ends assumed
# Relative to: no-protein control
# Reading: higher = stronger binding
# Constant ends, left off below: GGGAGUUCUACAGUCCGACGAUC … UGGAAUUCUCGGGUGCCAA
# Target sequence (chain): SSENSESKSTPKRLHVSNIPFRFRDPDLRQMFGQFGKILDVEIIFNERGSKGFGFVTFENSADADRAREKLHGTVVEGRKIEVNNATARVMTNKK
Strand,RBNS enrichment (R)
GCCAGACAGAGAGUAUUGCUGGAGGGUGAGAGAAUUGUGGAGACCAACUACCACAUAGCAAGAGCCCAGCUCUUGGGAGCAUUGAGAUGUAAGCUCAGGGUUACACAGUU,0.254
ACCUAGAGUGCAUCCUGCUCAUUGUCAGUGUAGCCCCUCGCCCCUAUAUUCAUCCAGGAUACUUGGAAGUGCUAAAAUAGGAAGGGAUUCGGCUUUCAACUUUGCUACCA,0.403
CUGAUCUGUUGAUAAGGCACUAUACACCAUGCUGGUGUGUUCUGUAGCCUUGUGCCCAUUAGGUAACUGAACAAUGAUUCAGCUCUUAGAAUACCUAGGAAGACAGCAAG,0.245
UCCUCUCUGUUGCGUGUGUCGAGAGACACUGACAGUUUCGUGUAACUCCCAGGAAUACUGUACCUGUGUUUGGAGGAGCUUUCUCAGAGAAAUAGCAAGCAUGUCCUGUU,1.62
CAACUUCUGGAUCGCAACCCCUUUGGGGGUGGGUAGGUCACAUAACAGAUAUGCUGACUAACAGAGAUUGCCAUUAUGAUUUAUAACAAUAUCAAAUGUAUAGUUAUGAA,0.208
AGUAUGGGGGAAAAGGGUCGAGUUAGAACAAAGCUAAGGCAAUUCCUAUUGCUUCCUUGCGCAACUUCUCAAAACGAUGAAAGUCAGAAGGCUGUCAAACUCAAAUAUCU,0.297
GAGGGGGCAACGGUGUGAUCCAGCUGGCUCAUCCCAGCCCAGGUGGGCCAAUUAUUCAAUUUUCAAGAAUUUUGUUGCAAGCCAGUUGUCAAACACAGCCAUUAUAAUUA,0.396
CUACAAAGCUGUUCCCUGAUGUCACAGGUCCCUCCGACUCAUUUUCCAGGAGACUUUGCCUUGAGGGUGCCACAGGUGGAGAGAUAAAGAUAGCUUUUGAAGCUUGAACA,0.32
UUUCCAUAUCUUUCCAUACAUCCAUUUCUGAAGUAUUCAGGAAUGUUUUCAUAAUCGAAAGAAACGGGUAUCCAAAUAAAACCAAGUUCUUGACAUUGGUCUGUUUUGCU,0.317
GCUGUGUGCCAGCCUGAGACGGUUCCUGCCUGUCUUGGGGGUUGGUGGAGGGUGGAGGCAGUUCUGCCAGCCGUGGCAGGGCUGCUAUGGGGCAUCCAGGGCUGUGGGGG,0.582
UCCUUUAUUUCAUAAGUUCAGAUCAUCUUAAAUGAAAAUGCCAUGAUUAUCUGCAGUUAAGUAGAUGACAGCUAUUCUACAUCAGACUUGAUUUUUGUCAGCUAAUUACA,0.957
AGUUUGUACUGGAGAACCAUACAGGACUUACCGCACCUUACCCCAUCCACUACCAUGUGCACUGACUGGCCUCAUUUUAUGAAGGAAGAGACAGGACCAGAGAGGCGAUG,0.234

# Study 4
# Target: CCNB2, cyclin fold, Cln2 fusion (human)
# Method: yeast growth competition, sequencing
# Matrix: yeast
# Setting: weak parent motif
# Relative to: not given
# Reading: higher = stronger binding
# Starting sequence: SLBP docking peptide (human); ARYKRKLLINDFG; partner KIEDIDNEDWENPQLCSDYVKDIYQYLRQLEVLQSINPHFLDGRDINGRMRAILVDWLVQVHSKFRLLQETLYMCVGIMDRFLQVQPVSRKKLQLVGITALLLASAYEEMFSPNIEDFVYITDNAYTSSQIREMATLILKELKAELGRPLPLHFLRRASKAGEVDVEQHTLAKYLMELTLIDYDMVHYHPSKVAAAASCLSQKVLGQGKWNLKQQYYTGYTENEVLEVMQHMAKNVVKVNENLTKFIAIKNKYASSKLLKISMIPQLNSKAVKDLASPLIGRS
Variant,normalised enrichment score
N10S,0.493
L8Q,0.453
R5M,0.463
K6P,0.316
D11C,0.581
K4M,0.676
N10Y,0.729
G13Y,0.62
K6F,0.415
I9S,1.07
I9C,0.933
F12P,0.918
L7D,0.313
I9G,0.589
K4W,1.08
L7A,0.217
A1I,0.226

# A few entries again (study 1):
Variant,binding fitness [natural log]
A40T,-1.38
E32H,-1.46
A57E,-1.46
S47L,-1.32
Q55S,-1.43
